Measurements of several laboratories.
Parts stem from different laboratories: compare values within a part only. Several values in a cell are separate wells, animals, samples, runs or records.

Series 1 — cell line: HCC1569; read-out: CDK1 Thr14 phosphorylation; method: in-cell western; concentration: 1.37 nM; reading: lower = stronger inhibition
`Cc1ccc(O)c(C)c1-c1cnc2[nH]c(-c3cnc(N4CCC(CN5CCN(c6cc7c(cc6F)n(C6CCC(=O)NC6=O)c(=O)n7C)CC5)CC4)nc3)cc2c1C#N` (stereo not drawn): “phospho-CDK1 (Thr14) level” -3.2 a.u. and 19 a.u.
`Cc1ccc(O)c(C)c1-c1cnc2[nH]c(-c3cnc(N4CC5(CC(CN6CCN(c7ccc(NC8CCC(=O)NC8=O)cc7F)CC6)C5)C4)nc3)cc2c1C#N` (stereo not drawn) — result for “phospho-CDK1 (Thr14) level”: 7.6 a.u. and 13.8 a.u.
`Cc1ccc(O)c(C)c1-c1cnc2[nH]c(-c3cnc(N4CCC(CN5CCN(c6cc7c(cc6F)c(N6CCC(=O)NC6=O)nn7C)CC5)CC4)nc3)cc2c1C#N` — result for “phospho-CDK1 (Thr14) level”: 3 a.u. and 7.56 a.u.
For `Cc1ccc(O)c(C)c1-c1cnc2[nH]c(-c3cnc(N4CCC(CN5CCN(c6ccc7c(c6)C(=O)N(C6CCC(=O)NC6=O)C7=O)CC5)CC4)nc3)cc2c1C#N` (stereo not drawn), “phospho-CDK1 (Thr14) level” read 20.7 a.u. and 13.9 a.u.
Under “phospho-CDK1 (Thr14) level”, `Cc1ccc(O)c(C)c1-c1cnc2[nH]c(-c3cnc(N4CCC5(CC4)CC(N4CCN(c6ccc(NC7CCC(=O)NC7=O)cc6F)CC4)CO5)nc3)cc2c1C#N` (stereo not drawn) is recorded as 26.5 a.u. and 12.6 a.u.

Series 2 — cell line: AsPC-1; method: in-cell ELISA; setting: individual replicates
SMILES: Cc1ncsc1-c1ccc(C(CO)NC(=O)C2CC(O)CN2C(=O)C(NC(=O)c2ccc(COc3c(-c4c(C)c(F)cc5[nH]ncc45)c(C4CC4)cc4c(N5CC6CC5CN6)nc(OC5CCOCC5)nc34)cc2)C(C)C)cc1 (stereo not drawn)
The phospho-ERK1/2 level was 99.9% and 90.5% and 91% and 91.7% and 97.8% (1 nM).
The phospho-ERK1/2 level was 8.92% and 23% and 9.23% and 16.2% and 9.54% and 23.9% (300 nM).
For 10 nM: phospho-ERK1/2 level read 93.4% and 92.1% and 88.2% and 94.3% and 92.6% and 94.4%.

Series 3 — SMILES: Cc1nc(C)c(C=[N+]([O-])C(C)(C)C)nc1C; method: footprint test
Species: MPTP-induced Parkinson's disease mouse model
For 30 mg/kg: “corridor crossing time” read 5.93 s and 4.94 s and 7.2 s and 5.01 s and 6.61 s and 5.74 s and 5.1 s and 5.78 s.
It gave 4.34 s and 6.22 s and 5.43 s and 2.86 s and 5 s and 6.36 s and 7.87 s and 5.18 s for “corridor crossing time” (90 mg/kg, trial 3).
The “corridor crossing time” was 5.53 s and 5.09 s and 4.22 s and 6.14 s and 5.96 s and 6.35 s and 7.14 s and 5.12 s (30 mg/kg, trial 1).
For 30 mg/kg, trial 2: “corridor crossing time” read 8.22 s and 6.22 s and 4.51 s and 5.08 s and 7.24 s and 5.33 s and 5.87 s and 5.94 s.
90 mg/kg, trial 2 — “corridor crossing time”: 5.65 s and 5.63 s and 7.26 s and 5.66 s and 7.22 s and 6.69 s and 6.35 s.
The “corridor crossing time” was 4.21 s and 7.01 s and 3.96 s and 6.91 s and 6.39 s and 5.29 s and 6.31 s and 7.22 s (10 mg/kg, trial 2).
10 mg/kg, mean of three trials — “corridor crossing time”: 6.88 s and 6.37 s and 4.7 s and 8.42 s and 6 s and 7.11 s and 6.83 s.
The “corridor crossing time” was 5.23 s and 4.73 s and 6.19 s and 5.45 s and 5.55 s and 5.13 s and 5.26 s (90 mg/kg, mean of three trials).

Series 4 — cell line: U-87 MG; concentration: concentration not given; reference: DMSO
SMILES: CCN1/C(=C/C=C2\CCCC(/C=C/C3=[N+](CC)c4ccccc4C3(C)C)=C2NCCCCCCCCN2CCC(Nc3nc4ccccc4n3Cc3ccc(F)cc3)CC2)C(C)(C)c2ccccc21
For item: POLQ mRNA: “log2 fold change” read -1.97.
It gave -1.68 for “log2 fold change” (item: GBP2 mRNA).
For item: TMEM177 mRNA: “log2 fold change” read -1.03.
It gave -2.01 for “log2 fold change” (item: CIITA mRNA).
The “log2 fold change” was 1.82 (item: BTG1 mRNA).
For item: KLRC2 mRNA: “log2 fold change” read -1.37.
It gave -1.31 for “log2 fold change” (item: SAC3D1 mRNA).
For item: MDGA1 mRNA: “log2 fold change” read -1.13.
The “log2 fold change” was 1.18 (item: ALPK1 mRNA).
item: TXLNG mRNA — “log2 fold change”: 0.915.
It gave 1.44 for “log2 fold change” (item: ZBTB10 mRNA).

For quick reference, copied from above (series 3):
The “corridor crossing time” was 4.21 s and 7.01 s and 3.96 s and 6.91 s and 6.39 s and 5.29 s and 6.31 s and 7.22 s (10 mg/kg, trial 2).
For 30 mg/kg: “corridor crossing time” read 5.93 s and 4.94 s and 7.2 s and 5.01 s and 6.61 s and 5.74 s and 5.1 s and 5.78 s.
